Measurements pooled from the literature.
Numbered parts are unrelated; each lists some results of a single study. Changes are numbered by the printed parent chain.

Series 1 — technique: DHFR PCA, deep sequencing; matrix: yeast; with: (+)-ABA 17 µM; baseline: wild-type fitted maximum; direction: higher = stronger binding
Target: ABI1, truncated, D143A, DHFR fusion (Arabidopsis thaliana)
Setting: methotrexate growth selection, single substitutions
Starting sequence: PYL1, truncated, DHFR fusion (Arabidopsis thaliana); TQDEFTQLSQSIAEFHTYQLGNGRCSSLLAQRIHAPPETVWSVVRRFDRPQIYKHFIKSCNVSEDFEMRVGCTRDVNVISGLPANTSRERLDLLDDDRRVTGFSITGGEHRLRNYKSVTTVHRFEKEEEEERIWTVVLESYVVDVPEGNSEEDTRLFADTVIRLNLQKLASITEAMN; partner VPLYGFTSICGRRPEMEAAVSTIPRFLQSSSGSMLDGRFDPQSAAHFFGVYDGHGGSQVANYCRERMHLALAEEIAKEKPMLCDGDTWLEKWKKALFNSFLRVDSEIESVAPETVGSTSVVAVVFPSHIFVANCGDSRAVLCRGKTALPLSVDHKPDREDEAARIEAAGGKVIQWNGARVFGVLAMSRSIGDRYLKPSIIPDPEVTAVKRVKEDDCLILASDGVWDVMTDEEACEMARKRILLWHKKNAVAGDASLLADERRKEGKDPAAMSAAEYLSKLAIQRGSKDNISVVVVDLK
| Substitution | relative binding score [%] |
| --- | --- |
| L8W | 69.2 |
| V44Y | -6.13 |
| D95L | 41.3 |
| N149W | -1.7 |
| P146M | 17.6 |
| N77T | 92.9 |
| K54H | 0.9 |
| Q167K | 96.7 |
| S87V | 25.7 |
| M176P | 80.9 |
| Q7W | 85 |
| I172V | 96.2 |
| Q19S | 84.3 |
| Q167W | 37.4 |
| N22V | 84.7 |

Series 2 — target: FOSB, bZIP domain (human); technique: DHFR protein complementation; matrix: yeast; baseline: wild-type JUN-FOS pair; direction: higher = stronger binding
Setting: single substitutions, most at no-binding floor
Starting sequence: JUN, bZIP domain (human); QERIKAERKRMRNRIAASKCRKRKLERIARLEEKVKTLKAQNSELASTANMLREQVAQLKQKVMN
| Substitution | binding fitness [natural log] |
| --- | --- |
| A57P | -1.34 |
| A49P | -1.36 |
| A46P | -1.37 |
| L38E | -1.39 |
| K39P | -1.38 |
| L52S | -1.52 |
| K34P | -1.37 |
| V56F | -1.22 |

Series 3 — target: CCND2, cyclin fold, Cln2 fusion (human); technique: yeast growth competition, sequencing; matrix: yeast; setting: weak parent motif; baseline: not given; direction: higher = stronger binding
Starting sequence: RB1 docking peptide (human); PKPLKKLRFDIEG; partner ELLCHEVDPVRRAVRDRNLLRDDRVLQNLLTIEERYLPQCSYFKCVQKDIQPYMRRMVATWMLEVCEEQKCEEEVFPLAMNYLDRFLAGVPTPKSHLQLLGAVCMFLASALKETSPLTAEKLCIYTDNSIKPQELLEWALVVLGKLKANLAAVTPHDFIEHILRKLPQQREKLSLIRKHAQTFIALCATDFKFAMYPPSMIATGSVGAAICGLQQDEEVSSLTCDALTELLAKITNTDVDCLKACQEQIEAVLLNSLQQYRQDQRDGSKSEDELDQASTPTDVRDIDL
| Substitution | normalised enrichment score |
| --- | --- |
| L7T | 0.00501 |
| K5A | -0.11 |
| P3Y | 0.357 |
| P3L | 0.421 |
| L7M | 0.144 |
| G13D | 0.476 |
| D10Q | 0.295 |
| F9C | 0.206 |
| K5V | 0.0363 |
| K5F | -0.0233 |
| G13R | 0.703 |
| G13K | 0.921 |
| L4V | 0.619 |
| E12Y | 0.05 |
| L4F | 0.517 |
| L4M | 0.339 |
| I11Y | 0.445 |
| G13F | 0.309 |
| G13C | 0.619 |
| K5R F9L | -0.307 |
| P1D | 0.801 |
| G13S | -0.00934 |
| L7F | 0.21 |
| K6F | 0.0811 |
| K6W | 0.254 |

Series 4 — technique: RNAcompete; molecule type: RNA; matrix: in vitro; tested at: 20 nM; setting: 7-mer, probes averaged, single round; baseline: mean of 7-mers; direction: higher = stronger binding
Target: PABPC1L2, full length, GST fusion (mouse, UniProt A0ABA7IW68)
| Oligonucleotide | 7-mer Z-score |
| --- | --- |
| AACGUCG | -0.0264 |
| UUAGGGC | 0.271 |
| UCUCGCU | -0.492 |
| GCCCUAC | -0.306 |
| CGUAGCC | -0.24 |
| CCACCCU | -0.237 |
| UAAUCUU | -0.266 |
| GCGAUAU | -0.164 |
| GCAAUGG | 0.109 |
| UAUUGUG | -0.188 |
| UCUCUAU | -0.364 |
| AUCGACU | -0.219 |
| CUCAUAG | -0.258 |
| UAUUCUA | -0.251 |
| GCGGUGG | 0.0895 |
| GCGUGAG | -0.286 |
| GGAGUAG | 0.158 |
| UCAAACU | -0.166 |
| UUCUGUC | -0.51 |
| CUAUACA | -0.0355 |
| UUAUUGA | -0.0573 |
| AUGAUAC | -0.0953 |
| CCCAAGA | -0.148 |

Series 5 — technique: universal PBM; molecule type: double-stranded DNA, one strand shown; matrix: in vitro; tested at: not given; direction: higher = stronger binding
Target: Sal-like protein 4, full length isoform B (SALL4, Homo sapiens, UniProt Q9UJQ4-2, residues 1-616)
Setting: 8-mer, flanks averaged, mean of replicates
Construct (chain): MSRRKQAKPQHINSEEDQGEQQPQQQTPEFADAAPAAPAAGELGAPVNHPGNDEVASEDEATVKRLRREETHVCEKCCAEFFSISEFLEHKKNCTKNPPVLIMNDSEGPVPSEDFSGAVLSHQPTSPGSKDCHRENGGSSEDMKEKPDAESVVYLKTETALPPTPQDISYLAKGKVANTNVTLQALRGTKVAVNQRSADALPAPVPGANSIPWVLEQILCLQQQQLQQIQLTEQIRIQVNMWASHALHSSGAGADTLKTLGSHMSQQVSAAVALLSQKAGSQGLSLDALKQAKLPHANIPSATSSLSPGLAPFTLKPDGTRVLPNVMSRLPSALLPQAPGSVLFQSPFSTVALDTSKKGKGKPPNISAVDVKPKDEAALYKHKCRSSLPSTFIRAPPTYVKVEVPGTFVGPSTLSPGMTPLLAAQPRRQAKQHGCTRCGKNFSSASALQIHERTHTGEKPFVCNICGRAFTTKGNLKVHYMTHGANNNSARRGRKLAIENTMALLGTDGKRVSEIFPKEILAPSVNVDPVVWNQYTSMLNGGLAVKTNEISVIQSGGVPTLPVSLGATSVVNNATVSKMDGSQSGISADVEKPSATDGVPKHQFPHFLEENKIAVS
| Oligonucleotide | E-score |
| --- | --- |
| TCGCGCAA | 0.0782 |
| AGTCTTGG | -0.0898 |
| CTCGGCCA | -0.142 |
| GGGTAGTA | 0.00616 |
| CGATACCG | -0.238 |
| CCCTCCTA | -0.207 |
| CTCTCGGC | -0.245 |
| CTCTTGGC | -0.168 |
| GGGGAACA | -0.173 |
| CCATCCAA | 0.0262 |
| CTGTCGGA | -0.121 |
| CACCCACC | -0.204 |
| CAGAGGTC | -0.19 |
| CAAAACAC | 0.0588 |
| ATATCGCA | 0.151 |
| GGTGAGGA | -0.129 |
| ACACTCGT | 0.0551 |
| GAATCCGA | 0.00824 |
| CTCACCCA | -0.103 |

Series 6 — technique: protein binding microarray; molecule type: double-stranded DNA, one strand shown; matrix: in vitro; tested at: not given; baseline: not given; direction: higher = stronger binding
Target: Histone acetyltransferase KAT6A, winged helix 2, GST fusion (KAT6A, Homo sapiens, UniProt Q92794, residues 85-181)
Setting: 8-mer, flanks averaged, mean of 2 arrays, mostly near background
Target sequence (chain): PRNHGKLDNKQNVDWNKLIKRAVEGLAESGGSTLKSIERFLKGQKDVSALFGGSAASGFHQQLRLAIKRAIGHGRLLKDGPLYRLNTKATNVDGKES
| Oligonucleotide | E-score |
| --- | --- |
| ATGGGCTC | -0.0936 |
| ACCCCGAT | 0.0142 |
| ACACTGGA | -0.0408 |
| ACTTTGAA | -0.0913 |
| ACGGGGGG | -0.0597 |
| TCGTTGAA | 0.0387 |
| AGGTCCCC | 0.101 |
| ACGCGTAG | -0.0416 |
| AGTGCCCG | 0.127 |
| AACTCGGG | 0.0713 |
| AGCACGCA | 0.0796 |
| GCCCGATA | 0.049 |
| AGTTCTAG | 0.103 |
| GGTGAACA | 0.0283 |
| ACGAAAAT | 0.0131 |
| AATCCCGG | -0.0407 |
| GCATTTAA | 0.0843 |
| ACAATTAG | -0.0189 |
| AAATTAGA | 0.0422 |
| TGGTACAA | -0.156 |
| AATCGTAA | -0.124 |
| GGATTGAC | -0.0214 |
| AAGAAACG | 0.14 |
| AGCTGCCG | 0.195 |
| AAAGGTTG | -0.146 |

Series 7 — technique: protein-binding microarray; molecule type: double-stranded DNA, one strand shown; matrix: in vitro; tested at: 2200 nM top; setting: 60-bp whole probe; with: salmon DNA 0.4 mg/ml; baseline: random background probes; direction: higher = stronger binding; constant ends, left off below: GCCTAGCAC … GTCTTGATTCGCTTGACGCTGCTG
Target: Interferon regulatory factor 7, full length, phosphomimetic (IRF7, Homo sapiens, UniProt Q92985, residues 1-503, S471D/S472D/S475D/S476D/S477D/S483D/S484D/S487D)
Chain of UniProt Q92985 (whole entry, unmodified, looked up): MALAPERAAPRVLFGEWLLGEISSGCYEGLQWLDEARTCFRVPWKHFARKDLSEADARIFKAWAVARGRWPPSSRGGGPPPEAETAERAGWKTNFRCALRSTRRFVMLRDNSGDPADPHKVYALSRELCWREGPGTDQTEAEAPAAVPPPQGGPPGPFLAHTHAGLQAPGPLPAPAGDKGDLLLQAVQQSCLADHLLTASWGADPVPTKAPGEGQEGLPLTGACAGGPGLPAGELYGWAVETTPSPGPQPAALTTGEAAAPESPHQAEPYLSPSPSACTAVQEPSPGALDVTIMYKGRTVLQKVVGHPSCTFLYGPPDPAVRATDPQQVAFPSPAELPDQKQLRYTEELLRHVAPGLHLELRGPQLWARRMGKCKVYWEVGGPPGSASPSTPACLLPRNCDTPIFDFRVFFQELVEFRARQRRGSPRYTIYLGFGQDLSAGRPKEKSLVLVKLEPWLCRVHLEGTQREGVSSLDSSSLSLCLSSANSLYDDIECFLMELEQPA
| Oligonucleotide | fitted relative affinity [z-score] |
| --- | --- |
| GTGGCCTTTGTTTCCAGGCAGTGCTAG | 0.351 |
| TTAGGTTTCAGTTCCGATTAGTGCTAG | 3.81 |
| TCATTACCGCATATCGGACTGTGCTAG | 0.786 |
| TTAGGTTTCCTTTTCCTTAAGTGCTAG | 5.84 |
| GACGGCATCGGTATCGGGACGTGCTAG | -0.412 |
| GACGATTCCAGTTTCCAGACGTGCTAG | 2.21 |
| TCAGGTTTCCAAATTGTACTGTGCTAG | 1.6 |
| GACGGACTGGATTTTCGGGACGTGCTA | 1.29 |
| TTACATCTCAGTCTCGATTAGTGCTAG | 1.23 |
| GACGGTATCCTTCGCCTGACGTGCTAG | 0.88 |
| GTATATACACTTATGACTTTGTGCTAG | 0.714 |
| GACGGGTTCCTTATCCTGACGTGCTAG | 0.761 |
| GACGGTAGCGACTATCGGGACGTGCTA | -0.622 |
| TCACCTAGCCATTATGAGACTGTGCTA | 0.363 |
| TCAATTTTCCCCTACTGACTGTGCTAG | 2.18 |
| TGCCATATTTATCTGCAAAGGTGCTAG | 0.59 |

Other studies, line by line — technique: cross-linking MS
| Substance | partner | system | setting | measurement | value |
| --- | --- | --- | --- | --- | --- |
| FAM98B (Homo sapiens, UniProt Q52LJ0) | RTRAF (Homo sapiens, UniProt Q9Y224) | cell fractions | with: DMTMM | cross-linked residues | E145 to K154 |
| HNRNPDL (Homo sapiens, UniProt O14979) | HNRNPD (Homo sapiens, UniProt Q14103) | – | hits only | interaction screen | cross-linked |
| PGRMC1 (Homo sapiens, UniProt O00264) | RPN1 (Homo sapiens, UniProt P04843) | cell fractions | with: DSSO | cross-linked residues | K102 to K564 |
| P4HB (Homo sapiens, UniProt P07237) | P4HA1 (Homo sapiens, UniProt P13674) | cell fractions | with: DSSO | cross-linked residues | K409 to K299 |
